Results gathered from unrelated publications.
Each line is one published result; not all experiments were run side by side. ± marks the error that the study gave. The star is where a group is joined.
Action: substrate
UniProt P0C7A3, sequence (whole entry, looked up): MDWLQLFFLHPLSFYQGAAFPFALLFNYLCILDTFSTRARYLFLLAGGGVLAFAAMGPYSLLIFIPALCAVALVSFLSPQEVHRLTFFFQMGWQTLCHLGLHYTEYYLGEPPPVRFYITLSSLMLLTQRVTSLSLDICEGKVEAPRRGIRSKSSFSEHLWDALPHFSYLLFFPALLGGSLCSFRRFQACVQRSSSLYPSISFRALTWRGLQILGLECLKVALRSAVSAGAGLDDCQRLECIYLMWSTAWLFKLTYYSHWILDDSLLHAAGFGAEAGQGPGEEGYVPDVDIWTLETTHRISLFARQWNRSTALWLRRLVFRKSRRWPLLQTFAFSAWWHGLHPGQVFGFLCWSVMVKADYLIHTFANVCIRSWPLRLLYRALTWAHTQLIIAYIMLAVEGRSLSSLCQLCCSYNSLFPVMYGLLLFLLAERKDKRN
UniProt P39458, sequence (whole entry, looked up): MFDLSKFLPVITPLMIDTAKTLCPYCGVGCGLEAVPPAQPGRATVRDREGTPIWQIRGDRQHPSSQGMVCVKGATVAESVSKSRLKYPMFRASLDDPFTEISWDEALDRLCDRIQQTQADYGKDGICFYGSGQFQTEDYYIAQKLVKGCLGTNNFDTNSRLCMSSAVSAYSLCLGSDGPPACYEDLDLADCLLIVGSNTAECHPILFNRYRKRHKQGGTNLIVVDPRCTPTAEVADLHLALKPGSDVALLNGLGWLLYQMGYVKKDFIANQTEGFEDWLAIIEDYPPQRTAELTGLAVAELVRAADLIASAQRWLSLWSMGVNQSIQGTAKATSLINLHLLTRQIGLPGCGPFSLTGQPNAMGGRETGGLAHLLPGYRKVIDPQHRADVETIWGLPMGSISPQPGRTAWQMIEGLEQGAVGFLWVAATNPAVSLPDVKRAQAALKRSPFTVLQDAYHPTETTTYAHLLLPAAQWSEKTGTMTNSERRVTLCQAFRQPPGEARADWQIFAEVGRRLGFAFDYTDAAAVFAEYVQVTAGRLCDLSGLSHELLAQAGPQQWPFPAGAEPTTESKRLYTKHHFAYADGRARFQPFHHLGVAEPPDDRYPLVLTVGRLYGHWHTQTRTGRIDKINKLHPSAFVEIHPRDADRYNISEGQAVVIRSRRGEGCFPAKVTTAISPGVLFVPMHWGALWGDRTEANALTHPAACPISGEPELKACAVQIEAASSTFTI
UniProt P12081, sequence (whole entry, unmodified, looked up): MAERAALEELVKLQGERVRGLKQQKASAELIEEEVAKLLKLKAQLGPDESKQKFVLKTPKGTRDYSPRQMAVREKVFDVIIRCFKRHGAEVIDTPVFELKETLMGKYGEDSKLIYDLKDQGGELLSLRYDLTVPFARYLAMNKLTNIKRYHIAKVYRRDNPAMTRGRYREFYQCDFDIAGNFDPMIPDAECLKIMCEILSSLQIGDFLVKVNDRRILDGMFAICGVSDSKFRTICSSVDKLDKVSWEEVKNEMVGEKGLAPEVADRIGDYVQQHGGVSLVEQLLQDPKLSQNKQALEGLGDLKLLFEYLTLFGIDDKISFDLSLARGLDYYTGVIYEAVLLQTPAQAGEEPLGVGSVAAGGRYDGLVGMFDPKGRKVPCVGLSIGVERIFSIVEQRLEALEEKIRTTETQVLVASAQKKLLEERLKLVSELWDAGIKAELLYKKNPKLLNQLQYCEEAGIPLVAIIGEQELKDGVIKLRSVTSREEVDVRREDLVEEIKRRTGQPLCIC
UniProt P55212, sequence (whole entry, looked up): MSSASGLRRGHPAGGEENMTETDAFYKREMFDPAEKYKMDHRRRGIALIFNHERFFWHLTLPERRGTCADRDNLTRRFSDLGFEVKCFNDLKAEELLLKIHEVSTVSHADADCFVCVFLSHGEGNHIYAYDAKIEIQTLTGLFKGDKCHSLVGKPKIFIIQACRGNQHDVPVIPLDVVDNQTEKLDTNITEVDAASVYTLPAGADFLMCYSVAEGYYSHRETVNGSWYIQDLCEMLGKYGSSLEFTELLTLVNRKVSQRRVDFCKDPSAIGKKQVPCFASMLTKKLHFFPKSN
UniProt P38999, sequence (whole entry, unmodified, looked up): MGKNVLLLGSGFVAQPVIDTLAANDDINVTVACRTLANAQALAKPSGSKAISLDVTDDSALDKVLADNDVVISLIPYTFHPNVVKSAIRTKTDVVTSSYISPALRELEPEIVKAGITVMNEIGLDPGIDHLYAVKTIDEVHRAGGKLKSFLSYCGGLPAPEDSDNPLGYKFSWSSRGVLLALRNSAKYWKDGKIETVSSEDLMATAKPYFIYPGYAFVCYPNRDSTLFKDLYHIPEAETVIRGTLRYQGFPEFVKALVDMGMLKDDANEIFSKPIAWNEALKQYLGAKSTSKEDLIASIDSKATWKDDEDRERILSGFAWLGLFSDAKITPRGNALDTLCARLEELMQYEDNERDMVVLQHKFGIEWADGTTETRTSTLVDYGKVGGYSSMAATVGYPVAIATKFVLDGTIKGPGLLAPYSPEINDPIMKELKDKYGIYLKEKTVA
UniProt P05852, sequence (whole entry, looked up): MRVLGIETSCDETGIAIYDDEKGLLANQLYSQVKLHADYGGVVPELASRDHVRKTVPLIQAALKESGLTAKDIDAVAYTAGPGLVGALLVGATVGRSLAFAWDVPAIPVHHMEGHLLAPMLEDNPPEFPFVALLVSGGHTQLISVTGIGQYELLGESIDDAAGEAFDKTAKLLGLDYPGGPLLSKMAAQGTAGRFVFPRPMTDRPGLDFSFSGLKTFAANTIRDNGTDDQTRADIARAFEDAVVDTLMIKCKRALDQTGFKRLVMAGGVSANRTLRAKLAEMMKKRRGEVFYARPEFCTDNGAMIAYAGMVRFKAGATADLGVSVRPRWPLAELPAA

For `N[C@@H](Cc1c[nH]cn1)C(=O)O`, the Km was 687 ± 200 µM (HARS1 (Homo sapiens, UniProt P12081, V155G); pH 7.5, with: 10 mM ATP, 5 µM tRNAHis).
`N[C@@H](CCC(=O)O)C(=O)O` gave a Km of 1500 ± 100 µM (Saccharopine dehydrogenase [NADP(+), L-glutamate-forming], D126A (LYS9, Saccharomyces cerevisiae, UniProt P38999); enzyme activity; pH 7.0, 25 °C, D126A mutant, with: NADPH and AASA saturating).
With `CCCCCCCC(=O)SCCNC(=O)CCNC(=O)[C@H](O)C(C)(C)COP(=O)(O)OP(=O)(O)OC[C@H]1O[C@@H](n2cnc3c(N)ncnc32)[C@H](O)[C@@H]1OP(=O)(O)O` the Km was 0.4 to 0.8 µM (Membrane-bound ghrelin O-acyltransferase MBOAT4 (Mus musculus, UniProt P0C7A3)).
`O=S(=O)(O)c1cc(Nc2nc(Cl)nc(Cl)n2)c2c(O)c(N=Nc3ccccc3)c(S(=O)(=O)O)cc2c1` gave a Km of 6.8 µM (ancestral dye-decolorizing peroxidase; peroxidase activity, steady-state kinetics; 25 °C, pH 3.0 ABTS, 4.0 others).
With `Ac-QDEVD-pNA (N-acetyl, C-pNA; pNA = O=[N+]([O-])c1ccc(N*)cc1)` the Km was 1070 ± 110 µM (Caspase-6 (CASP6, Homo sapiens, UniProt P55212); colorimetric p-nitroanilide release; pH 7.25).
For `Nc1ncnc2c1ncn2[C@@H]1O[C@H](COP(=O)(O)OP(=O)(O)OP(=O)(O)O)[C@@H](O)[C@H]1O`, the Km was 51 µM (kinesin-II homo-11, Caenorhabditis elegans; microtubule gliding velocity).
The Km of `O=[N+]([O-])O` is reported as 6 ± 1 µM (Nitrate reductase (narB, Synechococcus elongatus, UniProt P39458); with: reduced Synechocystis ferredoxin, saturating).
The Km of `isocitrate` is reported as 10 µM (Isocitrate dehydrogenase (Acetivibrio thermocellus, UniProt A3DC45); pH 8.0, 25 °C, with: NADP+ saturating).
For `Nc1c(S(=O)(=O)O)cc(Nc2cccc(S(=O)(=O)CCOS(=O)(=O)O)c2)c2c1C(=O)c1ccccc1C2=O`, the Km was 42 µM (ancestral dye-decolorizing peroxidase; peroxidase activity, steady-state kinetics; 25 °C, pH 3.0 ABTS, 4.0 others).
With `CC(=O)OCOc1cc2c(cc1F)C1(OC(=O)c3ccccc31)c1cc(F)c(OCOC(C)=O)cc1O2` the Km was 4.9 µM (porcine liver esterase; fluorogenic hydrolysis; pH 7.4, 23 °C, DMSO up to 1.5%).
The Km of `OO` is reported as 31 µM (ancestral DyP peroxidase R390K; peroxidase activity; pH 3.0, 25 °C, with: ABTS 25 µM).
`Nc1ncnc2c1ncn2[C@@H]1O[C@H](COP(=O)(O)OP(=O)(O)OP(=O)(O)O)[C@@H](O)[C@H]1O` has a Km of 14 µM (tsaD, with TsaB and TsaE (Escherichia coli, UniProt P05852); with: TC-AMP).

Some of these lines once more:
With `CC(=O)OCOc1cc2c(cc1F)C1(OC(=O)c3ccccc31)c1cc(F)c(OCOC(C)=O)cc1O2` the Km was 4.9 µM (porcine liver esterase; fluorogenic hydrolysis; pH 7.4, 23 °C, DMSO up to 1.5%).
The Km of `OO` is reported as 31 µM (ancestral DyP peroxidase R390K; peroxidase activity; pH 3.0, 25 °C, with: ABTS 25 µM).
